# Experimental data pooled from the literature.
# Lines come from different studies, so protocols differ. “And” joins repeats or separate records; there may be more than shown. ± marks the error that the study gave.
SMILES,target or system,test,test system,setting,how to read,quantity,result
CC[C@H](C)[C@H](NC(=O)[C@H](CCCCN)NC(=O)CNC(=O)[C@H](CC(C)C)NC(=O)[C@H](Cc1ccccc1)NC(=O)[C@H](CCCCN)NC(=O)[C@H](CO)NC(=O)[C@H](Cc1ccccc1)NC(=O)[C@H](Cc1c[nH]c2ccccc12)NC(=O)[C@H](CCC(N)=O)NC(=O)[C@@H](NC(=O)[C@H](Cc1ccccc1)NC(=O)CCCCCNC(=O)CN1CCN(CC(=O)O)CCN(CC(=O)O)CCN(CC(=O)O)CC1)C(C)C)C(=O)N[C@@H](CCC(=O)O)C(=O)N1CCC[C@H]1C(=O)N[C@@H](CC(=O)O)C(=O)N[C@H](C(=O)N[C@@H](CO)C(=O)N[C@@H](CCC(N)=O)C(=O)N[C@H](C(=O)N[C@@H](CCC(N)=O)C(=O)N[C@@H](CC(=O)O)C(=O)N1CCC[C@H]1C(=O)N[C@@H](CC(N)=O)C(=O)N[C@@H](CC(=O)O)C(=O)N[C@@H](CCC(N)=O)C(=O)N[C@@H](Cc1ccc(O)cc1)C(=O)N[C@@H](CCC(=O)O)C(=O)N1CCC[C@H]1C(=O)N[C@@H](Cc1ccccc1)C(=O)O)C(C)C)C(C)C [copper-64 labelled],,,"C57BL/6 mice, male, tumour-free, liver",2 h,,tissue uptake,25 ± 2.7 %ID/g
CC(=O)NCC(=O)N[C@@H](Cc1ccccc1)C(=O)N[C@@H](Cc1ccccc1)C(=O)N[C@@H](Cc1ccc(O)cc1)C(=O)NCC(=O)N[C@@H](Cc1ccc(O)cc1)C(=O)NCC(=O)N[C@@H](CO)C(=O)N[C@@H](CO)C(=O)N[C@@H](CO)C(=O)N[C@@H](CCCNC(=N)N)C(=O)N[C@@H](CCCNC(=N)N)C(=O)N[C@@H](C)C(=O)N1CCC[C@H]1C(=O)N[C@@H](CCC(N)=O)C(=O)N[C@H](C(=O)O)[C@@H](C)O,,,mouse skin,24 h,,skin permeation,12.8 ± 1.9%
CCn1ccc(-c2cc(C(C)NC(=O)c3cc(N4CC5CC4CN5C)ccc3C)c3ccccc3n2)n1 (stereo not drawn),Vero E6,,,31.25 µM,,viability,26.7% and 29.2% and 25.7%
C=Cc1c(C)c2cc3nc(c(CC(=O)[O-])c4[n-]c(cc5nc(cc1[n-]2)C(C)=C5CC)c(C)c4C(=O)[O-])C(CCC(=O)[O-])C3C.[Cu+2].[Na+].[Na+].[Na+] (stereo not drawn),,,"Wistar rat, male","oral, 500 mg/kg daily, 28 days",,serum ALT,45.7 ± 8.55 U/L
CC(CCC(=O)NCC(=O)O)C1CCC2C3CCC4CC(OC5OC(C(=O)O)C(O)C(O)C5O)CCC4(C)C3CC(O)C12C (stereo not drawn),,measured: glucuronide to parent ratio,"women, plasma",dose not given,baseline: C/C over T/T,ratio of metabolic ratios,7.29
O=C1NC2(CC2)COc2ncc(F)cc2[C@H]2COCCN2c2ccn3ncc1c3n2,,,"Sprague-Dawley rat, female, serum","oral, 5 mg/kg/day, end of recovery, 4-week subacute toxicity",,serum LDH activity,768 ± 64 U/L
CCn1ccc(-c2cc([C@@H](C)NC(=O)c3cc(N4CCN(C)[C@H](C)C4)ccc3C)c3ccccc3n2)n1,Vero E6,,,250 µM,,viability,2.86% and 3.58% and 4.3%
CCCC[C@H]1C(=O)N(C)[C@@H](CCCC)C(=O)N[C@@H](CCCNC(=O)CN2CCN(CC(=O)O)CCN(CC(=O)O)CCN(CC(=O)O)CC2)C(=O)N[C@H](C(=O)NCC(N)=O)CSCC(=O)N[C@@H](Cc2ccc(O)cc2)C(=O)N(C)[C@@H](C)C(=O)N[C@@H](CC(N)=O)C(=O)N2CCC[C@H]2C(=O)N[C@@H](Cc2c[nH]cn2)C(=O)N[C@@H](CC(C)C)C(=O)N(C)CC(=O)N[C@@H](Cc2c[nH]c3ccccc23)C(=O)N[C@@H](CO)C(=O)N[C@@H](Cc2c[nH]c3ccccc23)C(=O)N1C [gallium-68 labelled],,,"NOD/SCID mice with CHO-hPD-L1 xenograft, muscle",30 min post injection,,tissue uptake,0.89 ± 0.05 %ID/g
CSCC[C@H](NC(=O)[C@@H](NC(=O)[C@H](CC(C)C)NC(=O)[C@@H](NC(=O)[C@H](Cc1c[nH]cn1)NC(=O)CCCCCNC(=O)[C@H](CCCNC(=N)N)NC(=O)[C@H](CCCNC(=N)N)NC(=O)[C@H](CCCNC(=N)N)NC(=O)[C@H](CCC(N)=O)NC(=O)[C@H](CCCNC(=N)N)NC(=O)[C@H](CCCNC(=N)N)NC(=O)[C@H](CCCCN)NC(=O)[C@H](CCCCN)NC(=O)[C@H](CCCNC(=N)N)NC(=O)CNC(=O)[C@@H](N)Cc1ccc(O)cc1)C(C)C)C(C)C)C(=O)N[C@@H](CS)C(=O)N[C@@H](C)C(=O)N[C@H](C(N)=O)[C@@H](C)O,,,C57BL/6J mice,"Alzet osmotic pump, 3 mg/kg, 8 weeks",baseline: leukocytes,Eos,3% and 0% and 2%
CC(C(=O)O)n1nc(Cn2cc3cc(OCC[18F])c(Cl)cc3n2)c2ccccc2c1=O (racemic),,HPLC,"nonhuman primate, plasma",120 min post-injection,baseline: plasma radioactivity,hydrophilic radiometabolite,13%
CCN(CC)CCOc1ccc(-c2nnn(Cc3ccc(OC)cc3)c2N)cc1,,metabolic stability,"rat, plasma",,,half-life,> 6.21 h
O=C(c1cc(Cc2n[nH]c(=O)c3ccccc23)ccc1F)N1CC(CNC2CC2)C1,,,male Wistar Han rat,"oral, 15 mg/kg, day 28",,Cmax,952 ng/mL
C[C@H](O)[C@@H](NC(=O)[C@H]1CCCN1C(=O)[C@@H](CCCCN)NC(=O)[C@@H](CO)NC(=O)[C@@H](Cc1ccc(O)cc1)NC(=O)[C@@H](CC(N)=O)NC(=O)CCOCCOCCOCCNC(=O)CN1CCN(CC(=O)O)CCN(CC(=O)O)CCN(CC(=O)O)CC1)C(=O)N[C@H](CC(=O)O)C(=O)N[C@H](CCCNC(=N)N)C(=O)N[C@H](CCC(N)=O)C(=O)N[C@H](Cc1ccc(O)cc1)C(=O)N[C@H](Cc1c[nH]cn1)C(=O)N[C@H](Cc1ccccc1)C(N)=O [gallium-68 labelled],,,"BALB/c nude mice U-87 MG tumour, liver","intravenous, 1.85 MBq, 0.08333 h, radiolabelled",,tissue uptake,1.06 ± 0.26 %ID/g
CN1Cc2cc(Cl)ccc2-n2c(nnc2C2CCN(c3cccc([18F])n3)CC2)C1,,,"C57BL/6 mouse male, adrenal gland","intravenous, 3.7 MBq, 60 min",,tissue uptake,7.05 ± 3.48 %ID/g
CSCC[C@H](N)C(=O)N[C@@H](C)C(=O)N[C@@H](CCCNC(=N)N)C(=O)N[C@@H](CCCNC(=N)N)C(=O)N[C@@H](CC(=O)O)C(=O)N[C@@H](CCCCN)C(=O)N[C@H](C(=O)N[C@@H](CC(=O)O)C(=O)N[C@@H](Cc1ccccc1)C(=O)N[C@@H](C)C(=O)N[C@@H](CCCNC(=N)N)C(=O)N[C@@H](CCCNC(=N)N)C(=O)N[C@@H](CCCNC(=N)N)C(=O)N[C@@H](CCCNC(=N)N)C(=O)NCCCCCC(=O)NCCCCC(NC(=O)CCCCCNC(=O)[C@H](CCCNC(=N)N)NC(=O)[C@H](CCCNC(=N)N)NC(=O)[C@H](CCCNC(=N)N)NC(=O)[C@H](CCCNC(=N)N)NC(=O)[C@H](C)NC(=O)[C@H](Cc1ccccc1)NC(=O)[C@H](CC(=O)O)NC(=O)[C@@H](NC(=O)[C@H](CCCCN)NC(=O)[C@H](CC(=O)O)NC(=O)[C@H](CCCNC(=N)N)NC(=O)[C@H](CCCNC(=N)N)NC(=O)[C@H](C)NC(=O)[C@@H](N)CCSC)[C@@H](C)O)C(=O)NCCCCC(NC(=O)C(CCCCNC(=O)CCCCCNC(=O)[C@H](CCCNC(=N)N)NC(=O)[C@H](CCCNC(=N)N)NC(=O)[C@H](CCCNC(=N)N)NC(=O)[C@H](CCCNC(=N)N)NC(=O)[C@H](C)NC(=O)[C@H](Cc1ccccc1)NC(=O)[C@H](CC(=O)O)NC(=O)[C@@H](NC(=O)[C@H](CCCCN)NC(=O)[C@H](CC(=O)O)NC(=O)[C@H](CCCNC(=N)N)NC(=O)[C@H](CCCNC(=N)N)NC(=O)[C@H](C)NC(=O)[C@@H](N)CCSC)[C@@H](C)O)NC(=O)CCCCCNC(=O)[C@H](CCCNC(=N)N)NC(=O)[C@H](CCCNC(=N)N)NC(=O)[C@H](CCCNC(=N)N)NC(=O)[C@H](CCCNC(=N)N)NC(=O)[C@H](C)NC(=O)[C@H](Cc1ccccc1)NC(=O)[C@H](CC(=O)O)NC(=O)[C@@H](NC(=O)[C@H](CCCCN)NC(=O)[C@H](CC(=O)O)NC(=O)[C@H](CCCNC(=N)N)NC(=O)[C@H](CCCNC(=N)N)NC(=O)[C@H](C)NC(=O)[C@@H](N)CCSC)[C@@H](C)O)C(N)=O)[C@@H](C)O (stereo partly drawn),,,"mouse C57BL/6 female, spine","3 h, radioiodinated peptide",baseline: total radioactivity,tissue distribution,4.97% and 9.38%

# A few entries again:
SMILES,target or system,test,test system,setting,how to read,quantity,result
O=C1NC2(CC2)COc2ncc(F)cc2[C@H]2COCCN2c2ccn3ncc1c3n2,,,"Sprague-Dawley rat, female, serum","oral, 5 mg/kg/day, end of recovery, 4-week subacute toxicity",,serum LDH activity,768 ± 64 U/L
CCn1ccc(-c2cc([C@@H](C)NC(=O)c3cc(N4CCN(C)[C@H](C)C4)ccc3C)c3ccccc3n2)n1,Vero E6,,,250 µM,,viability,2.86% and 3.58% and 4.3%
